# Assay results pooled from the literature.
# Parts stem from different laboratories: compare values within a part only. Changes are numbered by the printed parent chain.

# Series 1
# Target: CCND3, cyclin fold, Cln2 fusion (human)
# Technique: yeast growth competition, sequencing
# Medium: yeast
# Notes: weak parent motif
# Baseline: not given
# Direction: higher = stronger binding
# Starting sequence: CDC6 docking peptide (human); TLKGRRLVFDNQL
Substitution,normalised enrichment score
TLKQRRLVFDNQL [G4Q],0.154
TLKGRRLKFDNQL [V8K],0.109
TLKGRYLVFDNQL [R6Y],0.125
TLKGRRLQFDNQL [V8Q],0.135
TLKGRREVFDNQL [L7E],0.119
TLKGRILVFDNQL [R6I],0.112
TLKGRRVVFDNQL [L7V],0.0518
TLKGRRKVFDNQL [L7K],0.199
TLKGRRLWFDNQL [V8W],0.118
TLKGRHLVFDNQL [R6H],0.123
SLKGRRLVFDNQL [T1S],0.0977
TLQGRRLVFDNQL [K3Q],0.139
TLKGRRLVFDNQC [L13C],0.155
TLKGYRLVFDNQL [R5Y],0.0951
NLKGRRLVFDNQL [T1N],0.136
TLKGRRLVFDNQQ [L13Q],0.142
TLKGMRLVFDNQL [R5M],0.147

# Series 2
# Target: RING finger protein unkempt homolog, zinc fingers 1-6, GST-SBP tag (UNK, Homo sapiens, UniProt Q9C0B0, residues 30-357)
# Technique: RNA Bind-n-Seq
# Molecule type: RNA
# Medium: in vitro
# Concentration: not given
# Notes: RNA with constant flanks, human and mouse sites, ends assumed
# Baseline: input RNA pool
# Direction: higher = stronger binding
# Constant ends, left off below: GGGAGUUCUACAGUCCGACGAUC … CAACAGAGGAUUGAGCAUCA
# Target sequence (chain): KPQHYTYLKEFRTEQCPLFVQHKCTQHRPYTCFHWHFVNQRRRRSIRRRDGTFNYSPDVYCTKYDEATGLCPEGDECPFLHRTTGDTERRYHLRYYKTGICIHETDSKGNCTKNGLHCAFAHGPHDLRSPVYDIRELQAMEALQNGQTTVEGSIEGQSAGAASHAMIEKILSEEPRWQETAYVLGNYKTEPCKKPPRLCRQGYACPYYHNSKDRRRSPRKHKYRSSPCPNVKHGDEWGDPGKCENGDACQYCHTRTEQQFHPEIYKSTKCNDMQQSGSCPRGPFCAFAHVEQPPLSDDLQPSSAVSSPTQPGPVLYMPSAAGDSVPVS
Sequence,bound/input enrichment [ratio]
CAAGACCCAACCAUUUCUUCCACCUGCUUGAUUGUGCCAGUGUUUGCUCAGGCCUCUUUCUUAGUGUUGCUUUCAAAUCCUUCUCUUUCCUGGGUUGGGAAGGCCAGGCAGGGACAGAGC,1.07
CCUUCUUUCUAGCCCUUCAAAGAUGCUGCCAGUGUUCGCCCUAGAGUUAUUACAAAGCCAGUGCCAAAACCCAGCCAUGGGCUCUUUGCAACCUCCCAGCUGCGCUCAUUCCAGCUGACA,3.15
CAGCAAUAUGCUGCUGCAGCCCUCCCCACUCUGUACAACCAGAAUUUAUUGACACAGCAGAGUAUUGGUGCUGCUGGAAGCCAGAAGGAAGGUCCAGAAGGAGCCAACCUGUUCAUCUAU,0.222
GCAAGACGGUGUAGUGUGACGUCCAUGGAGUCCACAGUGUCCUCGGGGACCCAGACAACUGUUCAGGAUGACCCUGAGCAAUUUGAGGUCAUCAAGCAACAAAAAGAAAUCAUUGAACAC,0.108
UAUUGCAAGGACCUUCUUUGCUGCCAGUUACCAUAGGCUGUUUUAAGUUAGAAAACUGAAUAGCAACACUGAAUACUGUAGAGAUGCACUUUGCUCAGUAAUACUUGAGUUGUUGCAAUA,0.392
UUUGUGACAUCCCCAGCAGCAGACAACAUAGAAAUGCUUCCUCAUUAUGAGCCAAUUCCAUUCAGUUCUUCUAUGAAUGAAUCUGCUCCCACUGGUAUUACUGAUCAUAUUGUCCAAGGA,0.348
GCCUCUGCCACGCUGAGUGCGUCGCGGACUGGGCUUUCCGAUAUGCUCGCGUUAGAGAGCGAUUUCUUCAAUUCUCCUCCGAAAAAAACUGUUCGGUUUGGCGGAACUGUGACAGAAGUC,0.075
AUGAUAUAAAACAUUUUGUGUUUCAUCUACCCAUUCAGCAAGAAUGAGUCCAGUCCCAUGUUUAGAUUAUUUUAACAUAAUUUGUGAAUGAUAGUUUCACAUUUGGCUGAUGGUUUGCAG,2.97
ACCAGGGAUGAGACCAACUAUGGAAUUCCACAGCGUGCUCUGCGGGGUCACUCCCACUUUGUUAGUGAUGUGGUUAUCUCCUCAGAUGGCCAGUUUGCCCUCUCAGGCUCCUGGGAUGGA,0.155
UCUACAUCUUCAUCUAUGCAGCCCAGCCCUGUAUCAAAUCAGUCACUUUUAUCAGAAUCUGUAGCAUCUUCUCAAUUGGACAGUACAUCUGUGGACAAAGCAGUACCUGAAACAGAAGAU,0.299
UACAGCCUGGGCUCUAUGAAACUGUUUUAAACAAACAAAACAAAGAUGCCACCUCUAACUUAGUUGGCAGGGUUAGAGACUCAAUACAGUGCCAAACUUUAUAAAAAUAAACUGUGCUCU,0.263

# Series 3
# Target: ATF3, bZIP domain (human)
# Technique: DHFR protein complementation
# Medium: yeast
# Notes: single substitutions, most at no-binding floor
# Baseline: wild-type JUN-FOS pair
# Direction: higher = stronger binding
# Starting sequence: JUN, bZIP domain (human); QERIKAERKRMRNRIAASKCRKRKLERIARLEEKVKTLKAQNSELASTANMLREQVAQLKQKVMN; partner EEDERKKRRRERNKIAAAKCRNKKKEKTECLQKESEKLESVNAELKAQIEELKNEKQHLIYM
Substitution,binding fitness [natural log]
M51E,-0.0646
E33V,-0.337
A49S,-0.543
T48S,-0.303
L45V,-0.956
E44K,-0.151
T37W,-0.0704
Q58A,-0.204
S43T,-0.0213
A46W,-0.222
L31W,-0.305
R53Q,-0.235
A29D,-0.172
L45Q,-1.18

# Series 4
# Target: Centromere-binding protein 1, full length, N-terminal tag (CBF1, Saccharomyces cerevisiae, UniProt P17106, residues 1-351)
# Chain of UniProt P17106 (whole entry, looked up): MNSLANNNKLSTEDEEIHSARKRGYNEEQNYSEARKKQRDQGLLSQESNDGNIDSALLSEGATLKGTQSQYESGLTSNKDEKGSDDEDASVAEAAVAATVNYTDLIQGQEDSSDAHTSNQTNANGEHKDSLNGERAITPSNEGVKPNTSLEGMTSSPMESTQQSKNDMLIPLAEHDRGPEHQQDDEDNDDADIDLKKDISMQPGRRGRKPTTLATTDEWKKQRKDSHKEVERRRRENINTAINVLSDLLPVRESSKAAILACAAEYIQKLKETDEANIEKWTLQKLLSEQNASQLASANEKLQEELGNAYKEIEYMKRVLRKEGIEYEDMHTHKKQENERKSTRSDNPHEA
# Technique: protein-binding microarray
# Molecule type: double-stranded DNA, one strand shown
# Medium: in vitro
# Concentration: 0.8 µM
# Notes: whole 60-bp probe, no competitor
# Direction: higher = stronger binding
# Constant ends, left off below: … GTCTTGATTCGCTTGACGCTGCTG
Sequence,fluorescence intensity
GAATTAGCCCCTTGTCACGCTGCACGACGCGTATAG,662 a.u.
CTAAAGTAATATCATAACGTGTGATGACTACTGTTC,609 a.u.
GAAATTATAACAAAACAGGTGATAACCGTGATCTAG,973 a.u.
GAACAAGAATTTCATCAGGTCTGGTACTTCTAGTAG,520 a.u.
GAACTGAATCTCAAGCGCACGCAGTATACCAAATAG,532 a.u.
CTAAAATTTGGAAGTCATGCAAGAAGAAGAAGCTTC,557 a.u.
CCTAACTACTATAATAGCATCAGATAGCTTCGTACA,485 a.u.
CTACAGTATTTTTTTCACGTGCTTTTTTTTCAATTC,5910 a.u.
CTAAATTCAAGTTACCTCGTGTTCTTAGTCATTTTC,660 a.u.
CTATTCCGTAATCGTGGTGCTCAACTTTTGAAATTC,507 a.u.
GAATTATGGTCCCACCACGCGTACTGTAAACAATAG,535 a.u.
GAAGACAGTTGTGCTCACATGATATAACAAAAGTAG,1890 a.u.
CTAAAGCGGGTAATAAACGTGTCTTTCGGTATTTTC,545 a.u.
GAACAGACCCTTCAGCACGTGACAGACAGCAAATAG,13300 a.u.
GAAAGTGAGGCGCATCACGTGAAAATACGTCAATAG,7370 a.u.
TGTACGAAGCTATCTCACGTGACTATAGTAGTTAGG,20500 a.u.
GAATGTAAATATAATCACCACCTGCCGTAAGCCTAG,566 a.u.

# Series 5
# Target: RNA binding protein fox-1 homolog 2, RRM domain, GST-SBP tag (RBFOX2, Homo sapiens, UniProt O43251-10, residues 100-194)
# Technique: RNA Bind-n-Seq
# Molecule type: RNA
# Medium: in vitro
# Concentration: 365 nM
# Notes: natural RNA segment, single round, ends assumed
# Baseline: no-protein control
# Direction: higher = stronger binding
# Constant ends, left off below: GGGAGUUCUACAGUCCGACGAUC … UGGAAUUCUCGGGUGCCAA
# Residues (chain): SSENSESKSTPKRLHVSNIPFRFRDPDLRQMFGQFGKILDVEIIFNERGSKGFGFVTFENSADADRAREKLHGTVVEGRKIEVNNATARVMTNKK
Sequence,RBNS enrichment (R)
AUAUAAUAAAUGGGAAAUGUCGAUUUUCAAUAAUAGACUUAUAUGCAGGCUGUCGUUCCGGUUAUGUUGUGUAAGUCAACUCUUCAGCCUCAUUCACUGUCCUGGCUUUU,0.346
CCAAACUGCCCCCUAUAUGUAAAGUUCAGUUUAACCACUGAUUGCCUUGUUAUUACUAGGUUUUUUGAGAUUAAAAAAAAAAAAUCCCUGGUUUAAAACCAACAAUGAUG,0.719
CCAUAUUAGCAGUGAAACAUUUUAAACUGCAGAAAUUGUGGUUUUGGUUCAGAAACAAGUUGUAUAUUUUUCACCCCUGAUUAUGGGAAAAAAAUCAGUUCUGUCUUUGU,0.419
AAACCAGUCAAGAGCAAUCAAAGCAGCACAUGGUGUUGUAUACUUCAUUAGCAAGUGAGUUUGGUGUUUUAUAGGUCACAUAUGUCUGUAUCUACUUAGCCAGAUGCUUG,0.398
UAAUCUUCACACUUAACCUUAGACACCUAUGCAGUCAUGUUGGGAGCAGGUUACAAUGUUACUUCAGCCCACAGUUUAUUUCUAUACUUGAGUUCUUAAGUACAGAAGAU,0.271
CUCGUGCACACUGGAUUGGUUUCUCAGUUGCUGGGCGAGCCUGUACUCUGCCUGACGAGGAACGCUGGCUCCGAAGAGGCCCUGUGUAGAAGGCUGUCAGCUGCUCAGCC,0.265
UGCUAAAACAGGCUUUAAAAGACAGCAAAAUAAGCCAUAUGUAGUGGUGUUAAGACUGUAAUCCCAGCACUCAGGAAGCUGAGACAGGAGAAUUGCCGGGAGUACAAAGU,0.802
GAAGACUCCAGGACAGGACAGGCAAAUUCAUGGUAUGUAUGCAGUUGCUGCUCCUGCUUCACCUGUGGCAGACAUCGCUAAUCGAUCACAGCACUCUAUCUCUCAGAGUC,0.306
GAGAGAUCUCAAGACAUUUUAAUAACAGCUUGAGCCCUCUUCUCCUCUGUAGGAACUUAGGUUAAUAGUAAUAUUAACAACAAGACAUGCUAAGACUCUUUGGUAAUCUA,0.397
UCAGACCUUGCCAGACAACCGAGUCCUGCAGGAUUCUGACUCAGAAGAUAAUCACAGACGUUAGUUAGAGUGUAUUUAUUUUUUUAAGUUACAAUAAAGUGCUCAGUCCU,0.33
CUGUAAAUACUUUUUUGGAAAAUAGAAAUUUUUAUUGCUUUAAAGUUUUGGAUAUGGGUGGUUUUCUUUUCCGGGUUUGGUGGAAAGUAAUUUGAGAACUUUAAGGUUGU,1.12
AGAUAAUAAUUAGAUAAUACUAUGUAAUUAAUUUUACUCAGUAGAUUAUCAUCUUAAGAGAUGCUUAAACAUGGUAAAUCACUUCAUAUUAUGAAAGUUUUACACUUAGU,0.391

# Further values, each from its own experiment
Substance,target,test,test system,setting,scale,endpoint,value
"PhoQ, residues 284 288 289 292 302 303 SNGLAW","PhoP, residues 12 14 15 18 19 LHHVQ (Escherichia coli, UniProt P23836)","Sort-seq, refers to: YFP reporter",E. coli,"PhoQ-PhoP variant library, added: 10 µM Mg2+","baseline: high Mg2+ state, higher = stronger signaling",fold induction,7.84

# Some of these lines once more (series 2):
Sequence,bound/input enrichment [ratio]
ACCAGGGAUGAGACCAACUAUGGAAUUCCACAGCGUGCUCUGCGGGGUCACUCCCACUUUGUUAGUGAUGUGGUUAUCUCCUCAGAUGGCCAGUUUGCCCUCUCAGGCUCCUGGGAUGGA,0.155
AUGAUAUAAAACAUUUUGUGUUUCAUCUACCCAUUCAGCAAGAAUGAGUCCAGUCCCAUGUUUAGAUUAUUUUAACAUAAUUUGUGAAUGAUAGUUUCACAUUUGGCUGAUGGUUUGCAG,2.97
GCAAGACGGUGUAGUGUGACGUCCAUGGAGUCCACAGUGUCCUCGGGGACCCAGACAACUGUUCAGGAUGACCCUGAGCAAUUUGAGGUCAUCAAGCAACAAAAAGAAAUCAUUGAACAC,0.108
CAAGACCCAACCAUUUCUUCCACCUGCUUGAUUGUGCCAGUGUUUGCUCAGGCCUCUUUCUUAGUGUUGCUUUCAAAUCCUUCUCUUUCCUGGGUUGGGAAGGCCAGGCAGGGACAGAGC,1.07
UCUACAUCUUCAUCUAUGCAGCCCAGCCCUGUAUCAAAUCAGUCACUUUUAUCAGAAUCUGUAGCAUCUUCUCAAUUGGACAGUACAUCUGUGGACAAAGCAGUACCUGAAACAGAAGAU,0.299
CAGCAAUAUGCUGCUGCAGCCCUCCCCACUCUGUACAACCAGAAUUUAUUGACACAGCAGAGUAUUGGUGCUGCUGGAAGCCAGAAGGAAGGUCCAGAAGGAGCCAACCUGUUCAUCUAU,0.222
UACAGCCUGGGCUCUAUGAAACUGUUUUAAACAAACAAAACAAAGAUGCCACCUCUAACUUAGUUGGCAGGGUUAGAGACUCAAUACAGUGCCAAACUUUAUAAAAAUAAACUGUGCUCU,0.263
CCUUCUUUCUAGCCCUUCAAAGAUGCUGCCAGUGUUCGCCCUAGAGUUAUUACAAAGCCAGUGCCAAAACCCAGCCAUGGGCUCUUUGCAACCUCCCAGCUGCGCUCAUUCCAGCUGACA,3.15
UAUUGCAAGGACCUUCUUUGCUGCCAGUUACCAUAGGCUGUUUUAAGUUAGAAAACUGAAUAGCAACACUGAAUACUGUAGAGAUGCACUUUGCUCAGUAAUACUUGAGUUGUUGCAAUA,0.392
GCCUCUGCCACGCUGAGUGCGUCGCGGACUGGGCUUUCCGAUAUGCUCGCGUUAGAGAGCGAUUUCUUCAAUUCUCCUCCGAAAAAAACUGUUCGGUUUGGCGGAACUGUGACAGAAGUC,0.075
